Measured values collected from several papers.
Protocols differ between the studies behind these lines. “And” joins repeats or separate records; there may be more than shown. ± gives the spread as reported.
SLC6A9: Sodium- and chloride-dependent glycine transporter 1 (SLC6A9, Homo sapiens, UniProt P48067)
USP14: Ubiquitin carboxyl-terminal hydrolase 14 (USP14, Homo sapiens, UniProt P54578)
Gria2/Glutamate receptor 3: Gria2/Glutamate receptor 3 (Rattus norvegicus, UniProt P19491+P19492)

O=C(O)C1CCCN(CC=CC(c2ccc3ccsc3c2)(c2ccc3ccsc3c2)c2ccc3ccsc3c2)C1 (stereo not shown)  remaining signal (SLC6A9; cell-free assay; 1 µM): 82.5%
Cc1ccc(-c2c(/C=C(\C#N)C(=O)NC(C)C)n(CCCO)c3ncnc(N)c23)cc1  remaining binding (Tyrosine-protein kinase ABL1, phosphorylated (ABL1, Homo sapiens, UniProt P00519, E255K); binding, competition with immobilised ligand; 1 µM): 98%
CC(C)[C@@H]1NC(=O)[C@H](Cc2ccccc2)NC(=O)CSC[C@@H](C(N)=O)NC(=O)[C@H](CCC(=O)O)NC(=O)[C@H](CO)NC(=O)[C@H](Cc2c[nH]c3cccc(Cl)c23)NC(=O)[C@H](C2CCCCC2)NC(=O)[C@H](C(C)C)NC(=O)[C@H](Cc2ccc(O)cc2)NC(=O)[C@H](CC(=O)O)NC(=O)[C@H](Cc2c[nH]c3ccccc23)NC(=O)[C@H](Cc2ccc(N)nc2)NC(=O)[C@H](Cc2c[nH]c3ccc(Cl)cc23)NC(=O)[C@H](CCC(=O)O)NC1=O  remaining activity (Interleukin-1 receptor-like 2 (IL1RL2, Homo sapiens, UniProt Q9HB29); SEAP reporter gene, antagonist; HEK-Blue IL-36R cells; 3.7 µM, 6 h, with: IL-36 0.1 ng/mL; reference: untreated): -0.2%
O=C(Nc1cc(C(=O)Nc2ccc(S(=O)(=O)O)cc2S(=O)(=O)O)cc(C(=O)Nc2ccc(S(=O)(=O)O)cc2S(=O)(=O)O)c1)Nc1cc(C(=O)Nc2ccc(S(=O)(=O)O)cc2S(=O)(=O)O)cc(C(=O)Nc2ccc(S(=O)(=O)O)cc2S(=O)(=O)O)c1  calcium influx (P2X purinoceptor 1 (P2RX1, Homo sapiens, UniProt P51575); antagonist, calcium influx; 1 µM, with: submaximal α,β-methylene ATP; reference: ionomycin response): 7.05% and 4% and 11.5% and 13.2%
CCCC[C@H](NC(=O)[C@H](CCC(N)=O)NC(=O)[C@H](CCC(=O)O)NC(=O)[C@@H]1CCCN1C(=O)[C@@H](NC(=O)[C@H](C)NC(=O)[C@H](CC(N)=O)NC(=O)[C@H](CC(=O)O)NC(=O)CNC(=O)[C@@H]1CCCN1C(=O)[C@H](Cc1ccc(O)cc1)NC(=O)[C@@H](NC(=O)[C@@H]1CCCN1C(=O)[C@H](CCC(=O)O)NC(=O)[C@H](CC(C)C)NC(=O)[C@@H]1CCCN1C(=O)[C@H](C)N)C(C)C)[C@@H](C)O)C(=O)N[C@@H](C)C(=O)N[C@@H](CCC(N)=O)C(=O)N[C@@H](Cc1ccc(O)cc1)C(=O)N[C@@H](C)C(=O)N[C@@H](CCCCNC(=O)c1ccc2c(c1)C(=O)OC21c2ccc(N(C)C)cc2Oc2cc(N(C)C)ccc21)C(=O)N[C@@H](CC(=O)O)C(=O)N[C@@H](CC(C)C)C(=O)N[C@@H](CCCNC(=N)N)C(=O)N[C@@H](CCCNC(=N)N)C(=O)N[C@@H](Cc1ccc(O)cc1)C(=O)N[C@H](C(=O)N[C@@H](CC(N)=O)C(=O)N[C@@H](CCCC)C(=O)N[C@@H](CC(C)C)C(=O)N[C@H](C(=O)N[C@@H](CCCNC(=N)N)C(=O)N1CCC[C@H]1C(=O)N[C@@H](CCCNC(=N)N)C(=O)N[C@@H](Cc1ccc(O)cc1)C(N)=O)[C@@H](C)O)[C@@H](C)CC  BRETmax (Neuropeptide Y receptor type 4 (NPY4R, Homo sapiens, UniProt P50391, H188A); NanoBRET binding; Nluc-tagged receptor H188A, unit not given; net BRET ratio): 0.048 ± 0.0007
Cn1c(=O)n(C2CCC(=O)NC2=O)c2ccc(C3CCN(CC(=O)Nc4cccc(CS(=O)(=O)N5CC[C@H](Nc6cccc(-c7sc(C(=O)O)c(OCC(=O)O)c7Cl)c6)CC5(C)C)c4)CC3)cc21 (stereo partly shown)  remaining protein (Tyrosine-protein phosphatase non-receptor type 2 (Ptpn2, Mus musculus, UniProt Q06180); degrader, Western blot; C57BL/6 mouse, splenocytes; intravenous, 100 mg/kg every 4 days, three doses, 2 h after final dose): 3%
c1ccc(-c2nc3ccccc3[nH]2)cc1  inhibition (USP14; enzyme activity, inhibitor; 17 µM): 30%
COC(=O)Cc1cc2c(cc1C(=O)c1ccccc1Br)OCO2  desensitization time constant (Gria2/Glutamate receptor 3; glutamate-evoked current, whole-cell patch clamp; HEK-293T; concentration not given, weighted tau, 500 ms pulse, with: glutamate): 2.3 ± 0.2 ms
COc1ccc(C(OCCNCc2cc(F)c(O)c(F)c2)(c2ccc(OC)cc2)c2ccc(OC)cc2)cc1  remaining signal (SLC6A9; cell-free assay; 1 µM): 96.7%
CCOC(=O)C1(C)C(Br)=C(Cl)C(=O)N1c1ccc(F)cc1 (stereo not shown)  inhibition (Rac GTPase-activating protein 1 (Homo sapiens, UniProt Q9H0H5); enzyme activity, inhibitor, ADP detection; 20 µM): 52.9%
CC[C@H](C)[C@H](NC(=O)[C@@H](NC(=O)[C@@H](NC(=O)[C@@H](NC(=O)[C@H](CCCNC(=N)N)NC(=O)[C@H](CCC(=O)O)NC(=O)[C@H](CCC(=O)O)NC(=O)[C@H](C)NC(=O)[C@H](CCC(=O)O)NC(=O)CNC(=O)[C@H](C)NC(=O)CN)C(C)C)C(C)C)C(C)C)C(=O)N[C@@H](CO)C(=O)N[C@@H](CO)C(=O)N[C@@H](CO)C(=O)N[C@@H](CCC(=O)O)C(=O)N[C@@H](CC(=O)O)C(=O)N[C@@H](CO)C(=O)N[C@@H](CC(=O)O)C(=O)N[C@@H](C)C(=O)N[C@@H](CCC(=O)O)C(=O)N[C@@H](CC(N)=O)C(=O)N[C@@H](CO)C(=O)N[C@@H](CO)C(=O)N[C@@H](CO)C(=O)N[C@@H](CCCNC(=N)N)C(=O)N[C@@H](Cc1ccc(O)cc1)C(=O)O  -TΔS (Small ubiquitin-related modifier 1, residues 17-97 (Homo sapiens, UniProt P63165, C52A); isothermal titration calorimetry; pH 7.4, N-terminally truncated SUMO1): -7.9 ± 0.21 kcal/mol
CCCCCC(O)/C=C/C=O (stereo not shown)  isoTOP-ABPP competition ratio (Ketosamine-3-kinase (FN3KRP, Homo sapiens, UniProt Q9HA64); competitive isoTOP-ABPP; Ramos soluble proteome; 100 µM, with: iodoacetamide probe; reference: DMSO over compound-treated, higher = stronger cysteine blockade): 15
OC[C@H]1O[C@@H](Oc2cc3c(O)cc(O)cc3[o+]c2-c2cc(O)c(O)c(O)c2)[C@H](O)[C@@H](O)[C@H]1O  binding enthalpy (PPO3 (Agaricus bisporus, UniProt C7FF04); fluorescence quenching; concentration not given): -30 ± 0.399 kcal/mol
N#Cc1ccc(N2C(=O)c3ccccc3C2=O)cc1  inhibition (USP14; enzyme activity, inhibitor; 17 µM): 30%
CCCCCCCO[C@H]1[C@H](OC)O[C@H](CO)[C@@H](O)[C@H](O)[C@@H]1O  ΔG (Type 1 fimbrin D-mannose specific adhesin, lectin domain (fimH, Escherichia coli K-12, UniProt P08191); binding, isothermal titration calorimetry; 25 °C, global fit of two titrations): -7.72 kcal/mol
CCCCCCCCCCCCC/C=C/C=O  isoTOP-ABPP competition ratio (3-ketoacyl-CoA thiolase, mitochondrial (Homo sapiens, UniProt P42765); competitive isoTOP-ABPP, measured: ACAA2 cysteine peptide; Ramos soluble proteome; 100 µM, with: iodoacetamide probe; reference: DMSO over compound-treated, higher = stronger cysteine blockade): 0.9
CC(=O)NCC1CCCCN1c1nc(NCCn2nnc(C)n2)nc(N2CC3C(CCOc4cc(-c5scnc5C)ccc4CNC(=O)[C@@H]4C[C@@H](O)CN4C(=O)[C@@H](NC(=O)C4(F)CC4)C(C)(C)C)C3C2)n1 (stereo partly shown)  ternary complex formation (VHL/BRD9, with Elongin B/C (Homo sapiens, UniProt P40337+Q9H8M2); native mass spectrometry; 5 µM, with: BRD9 and VCB at 5 µM; reference: unbound BRD9): 25%
O=C1c2sc(-c3ccc(N4CCC(F)C4)nc3F)nc2CCN1c1cccnc1 (stereo not shown)  specific binding (TAR DNA-binding protein 43, aggregated (TARDBP, Homo sapiens, UniProt Q13148); saturation autoradiography; human, FTLD-TDP type A brain sections; 0.28 nM): 7.43 nM
COc1cc2c(CCNC(C)=O)c[nH]c2cc1Cl  Emax (Melatonin receptor type 1B (MTNR1B, Homo sapiens, UniProt P49286); GTPγS binding, agonist, radiometric; cell membranes): 132%
CC(=O)N(C1=C(O)C(=O)c2ccccc2C1=O)c1ccccc1  inhibition (USP14; enzyme activity, inhibitor; 17 µM): 32%
COc1ccc(C(OCCN2CCCC(C(=O)O)C2)(c2ccc(CO)cc2)c2ccc(OC)cc2)cc1 (stereo not shown)  remaining signal (SLC6A9; cell-free assay; 1 µM): 78.1%
COC(=O)c1cc2cc3c(cc2oc1=O)N(CC(=O)NC(Cc1ccc(C)cc1)C(=O)NCC=CS(=O)(=O)c1ccccc1)CCC3 (stereo not shown)  kinact/Ki (Cathepsin S (CTSS, Homo sapiens, UniProt P25774); inhibitor; with: Z-Phe-Arg-AMC): 5510 M⁻¹ s⁻¹
Cc1ccc(NC(=O)NC(C)(C)c2cccc(NC3=CC(=O)N(C4CCC(=O)NC4=O)C3=O)c2)cc1Cl (stereo not shown)  log2 fold change (CRBN/Zinc finger protein Helios (Homo sapiens, UniProt Q96SW2+Q9UKS7); degrader, quantitative proteomics, measured: protein abundance; Jurkat; 1 µM, 4 h; reference: DMSO): -2.82
O=C(O)Cc1cc2c(cc1C(=O)c1ccccc1Br)OCO2  current amplitude (Gria2/Glutamate receptor 3; glutamate-evoked current, whole-cell patch clamp; HEK-293T; concentration not given): 96 ± 12 pA
CC[C@H](C)[C@H](NC(=O)CN)C(=O)N[C@@H](Cc1ccc(O)cc1)C(=O)N[C@H](C(=O)N[C@H](C(=O)N[C@@H](Cc1c[nH]c2ccccc12)C(=O)NCC(=O)N1CCC[C@H]1C(=O)N[C@H](C(=O)N[C@@H](C)C(=O)N[C@@H](C)C(=O)N[C@@H](CCC(=O)O)C(=O)N[C@@H](CCC(N)=O)C(=O)N[C@@H](CC(N)=O)C(=O)N1CCC[C@H]1C(=O)N[C@H](C(=O)N[C@@H](Cc1ccc(O)cc1)C(=O)N[C@@H](Cc1c[nH]c2ccccc12)C(=O)N[C@@H](C)C(=O)N[C@@H](CCCNC(=N)N)C(=O)N[C@@H](Cc1ccc(O)cc1)C(=O)N[C@@H](C)C(=O)N[C@@H](CC(=O)O)C(=O)N[C@@H](Cc1c[nH]c2ccccc12)C(=O)N[C@@H](CC(C)C)C(=O)N[C@@H](Cc1ccccc1)C(=O)N[C@H](C(=O)N[C@H](C(=O)N1CCC[C@H]1C(=O)N[C@@H](CC(C)C)C(=O)N[C@@H](CC(C)C)C(=O)N[C@@H](CC(C)C)C(=O)N[C@@H](CC(C)C)C(=O)N[C@@H](CC(=O)O)C(=O)N[C@@H](CC(C)C)C(=O)N[C@@H](C)C(=O)N[C@@H](CC(C)C)C(=O)N[C@@H](CC(C)C)C(=O)N[C@H](C(=O)N[C@@H](CC(=O)O)C(=O)N[C@@H](C)C(=O)N[C@@H](CC(=O)O)C(=O)N[C@@H](CCC(=O)O)C(=O)NCC(=O)N[C@H](C(=O)N[C@@H](CCCCNC(=O)CCCCCN1C(=O)CC(SC[C@H](N)C(=O)N[C@@H](Cc2c[nH]cn2)C(=O)N[C@@H](Cc2c[nH]cn2)C(=O)N[C@@H](Cc2c[nH]cn2)C(=O)N[C@@H](Cc2c[nH]cn2)C(=O)N[C@@H](Cc2c[nH]cn2)C(=O)N[C@@H](Cc2c[nH]cn2)C(=O)N[C@@H](Cc2c[nH]cn2)C(=O)N[C@@H](Cc2c[nH]cn2)C(=O)N[C@@H](Cc2c[nH]cn2)C(=O)N[C@@H](Cc2c[nH]cn2)C(=O)N[C@@H](Cc2c[nH]cn2)C(=O)N[C@@H](Cc2c[nH]cn2)C(=O)N[C@@H](Cc2c[nH]cn2)C(=O)N[C@@H](Cc2c[nH]cn2)C(=O)N[C@@H](Cc2c[nH]cn2)C(=O)N[C@@H](CS)C(=O)N[C@H](C(=O)N[C@@H](CCCNC(=N)N)C(=O)N[C@@H](C)C(=O)N[C@@H](CCCNC(=N)N)C(=O)N[C@H](C(=O)N[C@@H](CCCNC(=N)N)C(=O)O)[C@@H](C)O)C(C)C)C1=O)C(=O)O)[C@@H](C)O)C(C)C)[C@@H](C)O)[C@@H](C)O)[C@@H](C)CC)[C@@H](C)CC)[C@@H](C)CC)C(C)C (stereo partly shown)  protein level (Programmed cell death 1 ligand 1 (Cd274, Mus musculus, UniProt Q9EP73); western blot; 4T1; 0.5 µM, 12 h; reference: untreated): 105%

Some of these lines once more:
COC(=O)c1cc2cc3c(cc2oc1=O)N(CC(=O)NC(Cc1ccc(C)cc1)C(=O)NCC=CS(=O)(=O)c1ccccc1)CCC3 (stereo not shown)  kinact/Ki (Cathepsin S (CTSS, Homo sapiens, UniProt P25774); inhibitor; with: Z-Phe-Arg-AMC): 5510 M⁻¹ s⁻¹
CCCCCC(O)/C=C/C=O (stereo not shown)  isoTOP-ABPP competition ratio (Ketosamine-3-kinase (FN3KRP, Homo sapiens, UniProt Q9HA64); competitive isoTOP-ABPP; Ramos soluble proteome; 100 µM, with: iodoacetamide probe; reference: DMSO over compound-treated, higher = stronger cysteine blockade): 15
